Measured values pooled from the literature.
Parts stem from different laboratories: compare values within a part only. Substitutions count along the parent as printed.

Series 1
Target: Sal-like protein 4, full length isoform B (SALL4, Homo sapiens, UniProt Q9UJQ4-2, residues 1-616)
Method: universal PBM
Form: double-stranded DNA, one strand shown
Matrix: in vitro
Concentration: not given
Setting: 8-mer, flanks averaged, mean of replicates
Direction: higher = stronger binding
Construct (chain): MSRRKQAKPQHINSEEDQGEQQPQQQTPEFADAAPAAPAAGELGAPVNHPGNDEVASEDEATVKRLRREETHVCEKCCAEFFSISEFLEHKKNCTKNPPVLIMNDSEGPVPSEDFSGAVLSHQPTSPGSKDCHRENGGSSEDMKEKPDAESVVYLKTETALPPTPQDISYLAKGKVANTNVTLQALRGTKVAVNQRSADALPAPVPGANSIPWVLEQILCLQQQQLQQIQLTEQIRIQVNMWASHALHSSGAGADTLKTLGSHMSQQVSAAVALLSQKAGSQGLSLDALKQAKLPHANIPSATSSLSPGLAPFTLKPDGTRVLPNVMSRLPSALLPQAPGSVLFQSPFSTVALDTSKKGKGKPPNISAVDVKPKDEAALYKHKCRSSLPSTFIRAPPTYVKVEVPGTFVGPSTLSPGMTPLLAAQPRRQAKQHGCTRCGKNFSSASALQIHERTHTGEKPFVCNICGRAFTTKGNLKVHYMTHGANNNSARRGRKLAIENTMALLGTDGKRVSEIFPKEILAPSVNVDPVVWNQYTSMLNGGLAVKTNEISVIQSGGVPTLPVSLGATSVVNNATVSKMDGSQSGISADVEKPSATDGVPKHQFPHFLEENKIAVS
Sequence | E-score
ACTAATCA | 0.246
GGAGTGCC | -0.32
AGCTGTTA | 0.0778
ACGAAAGC | -0.0402
TGTGGTAA | 0.0927
CTACAGTC | -0.107
CGAAGGTC | -0.139
ACACAAGC | -0.0703
CGCTTGCC | -0.171
CTCCTCGC | -0.191
ATGGACTA | 0.208
CAATTGTC | 0.0373

Series 2
Target: Myc proto-oncogene protein, bHLH-zipper, MAX partner unstated (MYC, Homo sapiens, UniProt P01106, residues 368-449)
Sequence of UniProt P01106 (368-449, looked up): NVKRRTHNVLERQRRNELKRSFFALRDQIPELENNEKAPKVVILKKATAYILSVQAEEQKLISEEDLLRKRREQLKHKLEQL
Method: protein-binding microarray
Form: double-stranded DNA, one strand shown
Matrix: in vitro
Concentration: not given
Setting: k-mer, scored over probes, only values ≥0.25
Direction: higher = stronger binding
Sequence | E-score
AGCATGCG | 0.433
AGCATGTG | 0.466
GCGCACGC | 0.424
CCCTCCCA | 0.35
ACGAGGTA | 0.349
AGGCGTGC | 0.323
GTGCGCCA | 0.288
CCCACCCC | 0.373
CGCGCAAC | 0.253

Series 3
Target: CCND1, cyclin fold, Cln2 fusion (human)
Method: yeast growth competition, sequencing
Matrix: yeast
Setting: strong parent motif
Baseline: not given
Direction: higher = stronger binding
Starting sequence: RBL2 docking peptide (human); STTRRRLFVENDS; partner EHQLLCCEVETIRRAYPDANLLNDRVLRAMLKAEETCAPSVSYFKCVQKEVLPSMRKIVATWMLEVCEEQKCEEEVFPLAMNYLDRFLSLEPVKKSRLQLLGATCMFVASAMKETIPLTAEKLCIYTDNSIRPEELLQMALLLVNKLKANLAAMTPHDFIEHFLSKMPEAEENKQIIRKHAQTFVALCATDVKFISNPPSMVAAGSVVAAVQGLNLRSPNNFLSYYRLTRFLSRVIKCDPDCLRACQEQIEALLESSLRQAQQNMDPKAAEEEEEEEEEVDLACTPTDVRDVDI
Substitution | normalised enrichment score
STTRRRLFIENDS [V9I] | 0.791
STDRRRLFVENDS [T3D] | 0.267
STTRRRLFVEPDS [N11P] | 1.5
STTCRRLFVENDS [R4C] | 3.08
STWRRRLFVENDS [T3W] | 0.163
STTRRRLFVMNDS [E10M] | 0.695
SNTRRRLFVENDS [T2N] | 1.5

Further values, each from its own experiment
Substance | target | test | system | setting | how to read | endpoint | value
PhoQ, residues 284 288 289 292 302 303 SNSSNI | PhoP, residues 12 14 15 18 19 NQGLL (Escherichia coli, UniProt P23836) | Sort-seq, refers to: YFP reporter | E. coli | PhoQ-PhoP variant library, with: 10 µM Mg2+ | baseline: high Mg2+ state, higher = stronger signaling | fold induction | 1.91

Repeated from above (series 3):
Substitution | normalised enrichment score
STTRRRLFVEPDS [N11P] | 1.5
STTCRRLFVENDS [R4C] | 3.08
STWRRRLFVENDS [T3W] | 0.163
STTRRRLFVMNDS [E10M] | 0.695
SNTRRRLFVENDS [T2N] | 1.5
